Assay results from different studies.
Each numbered part is a random draw from the data of one study; scales do not carry over between parts. Substitutions count along the parent as printed.

Sample 1
Target: RNA binding protein fox-1 homolog 2, RRM domain, GST-SBP tag (RBFOX2, Homo sapiens, UniProt O43251-10, residues 100-194)
Technique: RNA Bind-n-Seq
Molecule type: RNA
Matrix: in vitro
Tested at: 365 nM
Setting: natural RNA segment, single round, ends assumed
Baseline: no-protein control
Reading: higher = stronger binding
Residues (chain): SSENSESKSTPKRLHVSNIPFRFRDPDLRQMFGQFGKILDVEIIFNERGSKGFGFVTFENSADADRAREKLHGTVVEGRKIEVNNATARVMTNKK
`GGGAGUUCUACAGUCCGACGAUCAAGGAAUUUCCAAAGGAUAAUAUUUUUCUAAUAAAUGCGGCUGCAACCUCCUGUGCAUUUAAUUAAAUAGGCCAAAUUUUUGCUGCUUAGGUCAUCUCAAGGCUGAUACUUGGAAUUCUCGGGUGCCAA` — result for “RBNS enrichment (R)”: 1.71.
`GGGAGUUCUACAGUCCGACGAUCCAAUGGGUUUUUCCCUGUACAGUAGAUUUUCCAAAUGUAAUAAACUUUAAUAUAAAGUAGUCCUGUGAAUGCCACUGCCUUCGCUUCUUGCCUCUGUGCUGUGUGUGACGUGGAAUUCUCGGGUGCCAA`: “RBNS enrichment (R)” 0.387.
`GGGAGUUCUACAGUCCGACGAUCUUCCUGAGGGGCCUCAGGGCAUUGGAGGGGGCCGACACCCCUCCACUAAAGAUUGAGUGAGGUCUCCCUGACUGAGGACUUCACCCCUUGAUUAAAGCAACUUGUGCUUCUGGAAUUCUCGGGUGCCAA`: “RBNS enrichment (R)” 0.451.
For `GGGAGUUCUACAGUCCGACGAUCCACGUGCAGCUCAUGACAAUCUGUAGGAUAACAAUCAGUGUGGAUUUCCACUCUUUUCAGUCCUUCAUGUUAAAGAUUUAGACACCACAUACAACUGGUAAAGGACGUUUUGGAAUUCUCGGGUGCCAA`, “RBNS enrichment (R)” read 0.269.
Under “RBNS enrichment (R)”, `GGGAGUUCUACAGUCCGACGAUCAUGAUAACUGUUGUGAGUAGUGCUUUUCAUUCUUCUCACUUGCCUUUGUUACUUAAUGUGCUUUCAGUACAGCAGAUAUGCAAUAUUCACCAAAUAAAUGUAGACUGUGUUGGAAUUCUCGGGUGCCAA` is recorded as 0.515.
For `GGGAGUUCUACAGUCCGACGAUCUCGUGUAGCGUACCUAAAAGACUAUUCUAUUAUGGGUGUCCCCACUUUCUUGGUUUGGUCACCCCGAUCCCCCGGUCUUCUGCUGUAUCUAGAACAGUGACUAUAAAUGAUGGAAUUCUCGGGUGCCAA`, “RBNS enrichment (R)” read 0.31.
For `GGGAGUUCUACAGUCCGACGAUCACCAAGAUUAGGACGUCAGUGGCUUAAAUUCUUUGAAUUCUUUUCAAGGACUGCAAGAUUAUUUGAUAAAGAGUAGCAUGAAUCUUGUGCUCUAAUAUUACACAGUAAGUUGGAAUUCUCGGGUGCCAA`, “RBNS enrichment (R)” read 7.34.
For `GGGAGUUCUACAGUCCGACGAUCCCGGCUAUGAAAGGGAGCGAGCCCCUCGGCUCUGGAGGCAAUCAAGCAGACAUAGAAGAGCCAAGAGUCCAGGAGGCCCUGGUCCUGGCCUCCUUCCCCGUACUUUGUCCUGGAAUUCUCGGGUGCCAA`, “RBNS enrichment (R)” read 0.378.
Under “RBNS enrichment (R)”, `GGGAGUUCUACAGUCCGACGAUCUUAUAGUCACGAAGUUCUACUUCCAGGAAGACCAUAGUACUGCCGAGGCCUGUAAUAAUCACCAACUGCCUGAUCACUCUGGCCAUCAUUGGGGCCUGAGGAACAACUUUUGGAAUUCUCGGGUGCCAA` is recorded as 0.229.
`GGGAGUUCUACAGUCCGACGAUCGGUUUGAAUUCCUUUCUUUAAAGAUGUAGUGUCCCUUUCGGUAAGAAUGGAUCCUUUAUUUUUAAAAUAAUCAAAAUUUGAAUAAUUGCUACACAUGGUUGCUAUUUAUUUGGAAUUCUCGGGUGCCAA` — result for “RBNS enrichment (R)”: 0.643.
For `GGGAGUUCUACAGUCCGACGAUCUGUUUCCUUAAUUAUCAUGGCAAGAUUACCUCACGUUCAGUAUAGUUUAGUUUUGUGUGUAUCUUACAGUAUGCAUGUUCUGAAAUUAUUUGUGAUCCUGAUAUGUCACAUGGAAUUCUCGGGUGCCAA`, “RBNS enrichment (R)” read 0.98.
Under “RBNS enrichment (R)”, `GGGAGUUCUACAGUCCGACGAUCGGCAGUUUCCAGACAGGAGAGCAAAUGCAACUCACAGCACCUGCUCAUGACCUUGGCUGAUAGGCAUGUGAAGUAGGAUGAAGCAGGACUCUUUAAUGUCAAAAAAACUGUGGAAUUCUCGGGUGCCAA` is recorded as 0.653.

Sample 2
Target: RING finger protein unkempt homolog, zinc fingers 1-6, SBP tag (UNK, Homo sapiens, UniProt Q9C0B0, residues 30-357)
UniProt Q9C0B0, sequence (30-357, looked up): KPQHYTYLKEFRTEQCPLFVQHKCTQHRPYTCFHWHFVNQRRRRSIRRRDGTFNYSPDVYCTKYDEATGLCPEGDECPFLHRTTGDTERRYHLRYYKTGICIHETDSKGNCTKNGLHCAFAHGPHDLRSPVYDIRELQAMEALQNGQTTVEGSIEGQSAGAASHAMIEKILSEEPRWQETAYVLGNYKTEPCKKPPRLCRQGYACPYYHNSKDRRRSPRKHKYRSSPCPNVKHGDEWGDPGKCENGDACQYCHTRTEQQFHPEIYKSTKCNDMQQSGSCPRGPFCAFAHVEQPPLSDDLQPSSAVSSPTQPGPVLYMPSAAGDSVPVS
Technique: RNA Bind-n-Seq
Molecule type: RNA
Matrix: in vitro
Tested at: 100 nM
Setting: RNA with constant flanks, vertebrate orthologous sites, ends assumed
Baseline: input RNA pool
Reading: higher = stronger binding
The bound/input enrichment of `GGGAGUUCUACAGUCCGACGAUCGUCAUCUGACUGGAUGAAGACCGUCCCAAGUUACAACCAAACCAAUAGCUCCAUGGACUUUAGAAAUUAUAUGAUGAGAGAUGAGAACCUGGAACCGCUGCCCAAAAACUGGGAAAUGGCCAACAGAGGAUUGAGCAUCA` is reported as 0.937 ratio.
`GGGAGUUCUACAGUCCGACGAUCGUCCUCGGAUUGGAUGAAGACCGUCCCGAGUUACAACCAGACCAAUAGCUCCAUGGACUUCAGAAAUUACAUGAUGAGAGAUGAGAAUCUGGAACCACUGCCCAAAAACUGGGAGAUGGCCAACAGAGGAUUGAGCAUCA` gave a bound/input enrichment of 0.274 ratio.
The bound/input enrichment of `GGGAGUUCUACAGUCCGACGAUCCUCCCCUUAAUCCCAUCUCAUCUGUUUCAUAGUGCUGAAAUUCUGUCUUCAGCCUUAUUUUUAGCGAACUUAUUCUAAUUCUAGCGAAACUUCCAGUGUGGAUACUGUGAGCUAUAUGGACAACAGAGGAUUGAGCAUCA` is reported as 2.31 ratio.
The bound/input enrichment of `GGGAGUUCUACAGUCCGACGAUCUCUUAUCCUGAUUUUAAAAGCCCUUCUUCAUCCCUUUUUUCUUUUUCUUUCCUUUUUUAGGCAUAUGUAGUAAUAAUAGCAGAAAGAUUUAAUUUGGGCAACUUUGAUUCUUCAAAGAGACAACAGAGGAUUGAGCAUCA` is reported as 0.453 ratio.
`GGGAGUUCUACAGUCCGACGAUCGUGUUUUGUACAGGGCAUUCUCUGUACUAGUUUGUCGUGGUUAUAAAACAAUUAGCAGAAUAGCCUACAUUUGUAUUUAUUUUCUAUUCCAUACUUCUGCCCACGUUUUCUCUCAAAAUCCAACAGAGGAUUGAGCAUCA` gave a bound/input enrichment of 1.06 ratio.
`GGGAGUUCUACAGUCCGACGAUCUCCUUUUAGGAUGAAGCUGUUACACCAGAUGUCACGGGUCUGGAAAACAGAUGGCUUAUCAAGUUGUUCUUACAGAUUACUCUCUGUGGAGCACAAUCCUUUAUAUACCAACAUCACAGUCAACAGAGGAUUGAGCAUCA` has a bound/input enrichment of 0.916 ratio.
With `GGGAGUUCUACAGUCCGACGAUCGGGUCCCUCCCAGGGUGAUGGCCAGGGUUGAGGACCCAAGGUUUCACCAAGGACCUGCAUUUCAAAGUUGUAAAUUCGUUGUACAGGAAGCCAUGUGGCUGAAACAGCCUCUCAAGGUCACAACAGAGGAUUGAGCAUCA` the bound/input enrichment was 0.249 ratio.
The bound/input enrichment of `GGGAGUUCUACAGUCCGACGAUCGUUUUGGUUCAAAGCUUUGGGUACCAAUGCUCAUCUUCCUUUCAUUAUACCAACAAACUCUAAGUGUAGGAAUUUACUAUUUUUCAGAAGUUUUACAUUGCUGUAUAUUCAAGGAUUUCUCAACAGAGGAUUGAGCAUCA` is reported as 0.472 ratio.
`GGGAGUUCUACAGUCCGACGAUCUCAGCAGUCUAGAUCUUUUUUUUUUCCUUUUUCCCUUAAUCCUUUUUUAUUUUUAAACAAUAGUUCUUUUGUAAUGUGGUGUUUGACACUGAAUUGAAACUGACACCCUAUCUCUGGGAGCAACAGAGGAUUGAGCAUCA` has a bound/input enrichment of 8.97 ratio.
The bound/input enrichment of `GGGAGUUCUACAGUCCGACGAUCUCGUCCUUCCUUUCUUUUUUUCUUUUUCUUUGUUUUCUUUCUUUCUUUCUUUUUUUUUGGUAGUUGUUCUUACCCACGCCAUUUUACGUCUCCUUCACUGAAGGGCUAGAGUUUUAACUUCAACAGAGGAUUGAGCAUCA` is reported as 2.01 ratio.

Sample 3
Target: Histone acetyltransferase KAT6A, both winged helices, GST fusion (KAT6A, Homo sapiens, UniProt Q92794, residues 1-181)
Technique: protein binding microarray
Molecule type: double-stranded DNA, one strand shown
Matrix: in vitro
Tested at: not given
Setting: 8-mer, flanks averaged, mean of 2 arrays, mostly near background
Baseline: not given
Reading: higher = stronger binding
Target sequence (chain): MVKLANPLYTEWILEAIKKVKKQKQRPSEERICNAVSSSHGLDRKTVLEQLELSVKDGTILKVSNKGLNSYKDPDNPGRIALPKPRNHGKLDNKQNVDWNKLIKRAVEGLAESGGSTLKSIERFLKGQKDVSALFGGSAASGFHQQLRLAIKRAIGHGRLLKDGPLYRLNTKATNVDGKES
The E-score of `GGGATGAA` is reported as -0.146.
The E-score of `GACTGCAC` is reported as -0.12.
For `CCCTTCGA`, the E-score was -0.091.
`ACAGCGCA` has an E-score of 0.203.
The E-score of `AAATGCAA` is reported as -0.21.
With `CGTTGAGA` the E-score was 0.0937.
`GTGGAGAA` gave an E-score of -0.115.
`CAAGGATG` has an E-score of -0.123.
`GACGTGAC` has an E-score of 0.00844.
`CTATTCCC` gave an E-score of -0.125.
The E-score of `GCAGCTTA` is reported as 0.00338.
For `GGCCTGGA`, the E-score was -0.132.
For `ATCCCGGG`, the E-score was 0.241.
For `GATAAGGC`, the E-score was -0.069.
`CGCACCAG` has an E-score of 0.158.
`ATTGTTCC` has an E-score of 0.0934.
The E-score of `ACGATGAG` is reported as 0.0666.
`GGGATGTA` has an E-score of 0.0708.
With `GACCAAAC` the E-score was -0.0722.
With `CTACTGTA` the E-score was -0.135.
The E-score of `CATCCATG` is reported as -0.118.
`CACTTGGA` has an E-score of -0.175.
For `GTGAACCA`, the E-score was -0.047.
The E-score of `AAAAGCTG` is reported as -0.0469.
For `AGCGGAAT`, the E-score was 0.186.

Sample 4
Target: CCNE2, cyclin fold, Cln2 fusion (human)
Technique: yeast growth competition, sequencing
Matrix: yeast
Setting: strong parent motif
Baseline: not given
Reading: higher = stronger binding
Parent: WEE1 docking peptide (human); HKTFRKLRLFDTP
`HKTFKKLRFFDTP [R5K L9F]` — result for “normalised enrichment score”: -0.0876.
`HKTFRKLRLFDTR [P13R]`: “normalised enrichment score” 0.511.
For `HKTGRKLRLFDTP [F4G]`, “normalised enrichment score” read 0.552.
`HKTFRKLRLFDKP [T12K]` — result for “normalised enrichment score”: 0.685.
`HKTFRKLRMFDTP [L9M]` — result for “normalised enrichment score”: 0.0922.
Under “normalised enrichment score”, `HATFRKLRLFDTP [K2A]` is recorded as 1.17.
`HKTFRILRLFDTP [K6I]` — result for “normalised enrichment score”: 1.27.
Under “normalised enrichment score”, `HKTFRKLVLFDTP [R8V]` is recorded as 0.783.
`HKTFRKLHLFDTP [R8H]`: “normalised enrichment score” 0.447.
Under “normalised enrichment score”, `HKTFRKLQLFDTP [R8Q]` is recorded as 1.9.
`HKTFRKLELFDTP [R8E]`: “normalised enrichment score” 0.684.
For `HKTFRKLRLFRTP [D11R]`, “normalised enrichment score” read 0.655.
`VKTFRKLRLFDTP [H1V]` — result for “normalised enrichment score”: -0.178.
For `HKTFWKLRLFDTP [R5W]`, “normalised enrichment score” read 1.05.
Under “normalised enrichment score”, `HKTFRKLRLGDTP [F10G]` is recorded as 0.495.
`HKTFRKLRLFDYP [T12Y]`: “normalised enrichment score” 0.815.
For `HKYFRKLRLFDTP [T3Y]`, “normalised enrichment score” read -0.741.
`HKTFRALRLFDTP [K6A]` — result for “normalised enrichment score”: 1.13.
Under “normalised enrichment score”, `HKRFRKLRLFDTP [T3R]` is recorded as 0.837.
`HKTFRKSRLFDTP [L7S]` — result for “normalised enrichment score”: 0.307.

A few entries again (sample 3):
`CAAGGATG` has an E-score of -0.123.
With `GACCAAAC` the E-score was -0.0722.
`GGGATGTA` has an E-score of 0.0708.
`CGCACCAG` has an E-score of 0.158.
With `CTACTGTA` the E-score was -0.135.
The E-score of `AAATGCAA` is reported as -0.21.
The E-score of `GGGATGAA` is reported as -0.146.
For `ATCCCGGG`, the E-score was 0.241.
`GACGTGAC` has an E-score of 0.00844.
